Experimental data from different studies.
A part holds a random share of what one study measured. Changes are numbered by the printed parent chain.

Block 1 — technique: RNA Bind-n-Seq; molecule type: RNA; medium: in vitro; concentration: not given; notes: RNA with constant flanks, ends assumed; reference: input RNA pool; reading: higher = stronger binding; measurement: bound/input enrichment
Target: RING finger protein unkempt homolog, zinc fingers 1-6, GST-SBP tag (UNK, Homo sapiens, UniProt Q9C0B0, residues 30-357)
All sequences stand within: GGGAGUUCUACAGUCCGACGAUC … CAACAGAGGAUUGAGCAUCA
Construct (chain): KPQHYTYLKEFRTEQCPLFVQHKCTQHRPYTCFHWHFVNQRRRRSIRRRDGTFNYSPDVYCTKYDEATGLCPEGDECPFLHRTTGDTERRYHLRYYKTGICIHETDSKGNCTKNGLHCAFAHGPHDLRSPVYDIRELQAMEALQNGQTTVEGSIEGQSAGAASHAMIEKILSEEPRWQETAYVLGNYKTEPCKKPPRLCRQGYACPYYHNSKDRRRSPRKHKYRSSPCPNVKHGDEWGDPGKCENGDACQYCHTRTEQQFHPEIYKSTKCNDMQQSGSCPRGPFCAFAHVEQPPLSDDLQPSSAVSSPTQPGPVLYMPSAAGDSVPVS
AGGCGCAAAGCAGCAAAUGUCACGUUACUCACCUCACUGGUAGAAGGGGAAGCUGUUCACUCCGCUCGGGAUUUCGGGUAUAUUUGUGAAACAGAGUUUCCUGCUAAAGCCGUGUCCGAG: 0.135 ratio
AUGAUUUAUGAGAUCAUUGAUAAUUCUCAAGGAUUUUAUGUAUGCCCAGUGGAGCGCCAGAACCGAAGCAGGAUGAACAUCCCAUUUCGCAUUGGCAACGCCAAAGGAGACGAAGCUUUG: 0.0994 ratio
CCUCUGGAAGCCUUGCGCAGAGCUUACUUUGUAAUUGUUGGAGAAUAACUGCUGAAUUUUCCGCUGUUUUGAGUUGAUUCGCACCACUGCACCACAACUCAAUAUGAAAACUAUUUAACU: 0.0987 ratio
UUUGUAAAUUUCUCCGAGCAGAAAGAAAAGUUAAUAAAGCGUCAAGAAGAGUUAGACCGGGGUUACAAAUCAAUCAUGGAACUGAUGAAUGUACUUGAACUUCGGAAAUAUGAAGCUAUU: 0.296 ratio
AAGACAAAACUGGACACUCUAGCUACUGGUCAUCUUUUCCAGGAAGUGAGAUGCAUGAAACCCGUGCAGCAUCCUAACAUCGUCCGCCUUUAUGAAGUUAUUGACACCCAGACCAAACUA: 0.162 ratio
CAAACUUAUCAAGAAAUAGUUACCAGUCAUUCCGCAGCAUCCUGAGAACAGUUAAAAACACAUUUCACCGUAAUGCCCUUCCAUUUUGGUAAUACUAAGCUGAACAUUUAAAAAUCUUGG: 0.236 ratio
AAAUGCUCAGUUCUAACUAAUGAAAUGGAUUUCCCAGUAGGGGUUUCUGCAUAUCACCUGUACCGCCGUUAUAUGCAUAUGUUUCUGUGCAUGUUCUCUACACAAUUGUAAGGUGUCACU: 0.291 ratio
GUAGUUGGAGGGUACUUCGGCAUUCAGCGCUGCAAGACUUUGGACUGUUACGACCCAACUUCCGAUGUGUGGAACAGCAUAACCACUGUUCCCUACUCUCUGAUCCCUACUGCAUUCGUC: 0.0759 ratio

Block 2 — target: CCNF, cyclin fold, Cln2 fusion (human); technique: yeast growth competition, sequencing; medium: yeast; notes: strong parent motif; reference: not given; reading: higher = stronger binding; measurement: normalised enrichment score
Parent: DOT1L docking peptide (human); SEAKRRIVFTITT; partner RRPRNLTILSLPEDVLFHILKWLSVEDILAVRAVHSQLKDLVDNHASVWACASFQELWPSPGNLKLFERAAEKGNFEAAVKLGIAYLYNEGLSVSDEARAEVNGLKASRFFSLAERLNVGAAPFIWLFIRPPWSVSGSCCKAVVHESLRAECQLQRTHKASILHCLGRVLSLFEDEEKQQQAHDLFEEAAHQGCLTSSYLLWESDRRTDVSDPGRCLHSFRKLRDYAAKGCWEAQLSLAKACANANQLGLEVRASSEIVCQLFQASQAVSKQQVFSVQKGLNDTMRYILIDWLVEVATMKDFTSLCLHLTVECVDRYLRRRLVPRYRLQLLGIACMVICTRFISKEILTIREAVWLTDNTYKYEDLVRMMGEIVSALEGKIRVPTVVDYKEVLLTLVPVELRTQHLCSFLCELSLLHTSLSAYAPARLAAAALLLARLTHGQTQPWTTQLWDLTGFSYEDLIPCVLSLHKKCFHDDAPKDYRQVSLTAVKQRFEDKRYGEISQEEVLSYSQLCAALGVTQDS
S1A: 4.35
T12A: 4.29
V8A: 1.28
T10A: 3.5
R5A: -0.13
I7A: 0.139

Block 3 — target: CEP164, C-terminal peptide (human); technique: DHFR complementation, deep sequencing; medium: yeast; reference: wild type; reading: higher = weaker binding; measurement: binding free energy change
Notes: single substitutions, model-inferred values
Parent: PDZK1, PDZ domain 2 (human); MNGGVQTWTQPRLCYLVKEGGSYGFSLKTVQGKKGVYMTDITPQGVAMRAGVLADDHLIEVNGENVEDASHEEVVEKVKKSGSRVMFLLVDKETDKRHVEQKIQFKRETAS; partner HNRVKVYRF
V5Y: 0.073 kcal/mol
K33I: -0.17 kcal/mol
E19H: 0.209 kcal/mol
I41Q: 1.06 kcal/mol
F25P: 1.83 kcal/mol
E67T: -0.0856 kcal/mol
D68T: 0.114 kcal/mol
Y37V: 0.345 kcal/mol
K96M: -0.122 kcal/mol
Q10G: -0.181 kcal/mol
S70G: -0.0107 kcal/mol
F25C: 1.35 kcal/mol
A54Y: 0.439 kcal/mol
K34N: 0.314 kcal/mol
K92Q: 0.172 kcal/mol
M38S: 1.5 kcal/mol

Block 4 — technique: DHFR PCA, deep sequencing; medium: yeast; added: (+)-ABA 0.0091 µM; reference: wild-type fitted maximum; reading: higher = stronger binding; measurement: relative binding score
Target: ABI1, truncated, D143A, DHFR fusion (Arabidopsis thaliana)
Notes: methotrexate growth selection, single substitutions
Parent: PYL1, truncated, DHFR fusion (Arabidopsis thaliana); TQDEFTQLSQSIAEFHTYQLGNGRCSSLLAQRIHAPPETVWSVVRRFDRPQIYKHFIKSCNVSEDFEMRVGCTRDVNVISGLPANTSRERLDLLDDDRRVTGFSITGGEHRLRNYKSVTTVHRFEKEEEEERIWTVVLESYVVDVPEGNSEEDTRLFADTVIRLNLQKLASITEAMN
N77C: 54.4%
R74V: -1.63%
L112H: -5.5%
K54W: 8.58%
T154Y: -3.07%
R49A: 22.3%
S63K: 34.7%
V44T: 0.668%
N61R: 50.6%
N114Q: 2.67%
R113D: -5.07%
N149E: 30.6%
M176S: 1.92%
T120H: -1.03%
I57T: 2.39%
K54P: -2.66%
E131H: 65.1%
C72D: 27.6%
I172F: -4.34%
E131L: 39.4%
L91H: 0.803%
V100P: -5.37%
Y53D: -2.99%
F66I: -3.11%
E89W: 12.6%

Mixed results
PhoQ, residues 284 288 289 292 302 303 GASLAW
fold induction (PhoP, residues 12 14 15 18 19 TPWLV (Escherichia coli, UniProt P23836); Sort-seq, measured: YFP reporter; E. coli; PhoQ-PhoP variant library, added: 10 µM Mg2+; reference: high Mg2+ state, higher = stronger signaling): 0.905

A few entries again (block 3):
Q10G: -0.181 kcal/mol
M38S: 1.5 kcal/mol
K34N: 0.314 kcal/mol
K92Q: 0.172 kcal/mol
E67T: -0.0856 kcal/mol
I41Q: 1.06 kcal/mol
K33I: -0.17 kcal/mol
